Assay results collected from several papers.
Compare with care: the assays were run in different laboratories. ± marks the error that the study gave.

| SMILES | test | system | conditions | scale | quantity | value |
| --- | --- | --- | --- | --- | --- | --- |
| Cc1ccc(C(=O)N(CCCN)C(c2nc3snc(C)c3c(=O)n2Cc2ccccc2)C(C)C)cc1 (centres unmarked) | – | human patients, plasma | intravenous, 4 mg/day, day 3 of induction course, geometric mean | – | plasma concentration at 24 h | 4.5 ng/mL |
| Fc1ccc([C@@H]2CCNC[C@H]2COc2ccc3c(c2)OCO3)cc1 | – | human, CYP2D6 intermediate metabolizers, plasma | oral, 20 mg, steady state | – | peak-trough fluctuation | 43% |
| O=C(CCCN1CC=C(n2c(=O)[nH]c3ccccc32)CC1)c1ccc(F)cc1 | – | male Hartley guinea pig, anaesthetized | intravenous, 0.1 mg/kg, baseline before infusion | – | QTc interval | 319 ± 0.5 ms |
| Cn1c(C(F)(F)F)cc(=O)n(-c2cc(Oc3cccnc3OCC(=O)O)c(Cl)cc2F)c1=O | – | Crl:CD(SD) rats, female, plasma | oral diet, 300 ppm in diet, day 1, 90-day toxicity study | – | AUC(0-24 h) | 6240 ng·h/mL |
| CC[C@H](C)[C@H](NC(=O)[C@H](Cc1ccccc1)NC(=O)[C@H](CCC(=O)O)NC(=O)[C@H](CCCCNC(=O)COCCOCCNC(=O)COCCOCCNC(=O)CC[C@H](NC(=O)CCCCCCCCCCCCCCCCC(=O)O)C(=O)O)NC(=O)[C@H](C)NC(=O)[C@H](C)NC(=O)[C@H](CCC(N)=O)NC(=O)CNC(=O)[C@H](CCC(=O)O)NC(=O)[C@H](CC(C)C)NC(=O)[C@H](Cc1ccc(O)cc1)NC(=O)[C@H](CO)NC(=O)[C@H](CO)NC(=O)[C@@H](NC(=O)[C@H](CC(=O)O)NC(=O)[C@H](CO)NC(=O)[C@@H](NC(=O)[C@H](Cc1ccccc1)NC(=O)[C@@H](NC(=O)CNC(=O)[C@H](CCC(=O)O)NC(=O)C(C)(C)NC(=O)[C@@H](N)Cc1cnc[nH]1)[C@@H](C)O)[C@@H](C)O)C(C)C)C(=O)N[C@@H](C)C(=O)N[C@@H](Cc1c[nH]c2ccccc12)C(=O)N[C@@H](CC(C)C)C(=O)N[C@H](C(=O)N[C@@H](CCCNC(=N)N)C(=O)NCC(=O)N[C@@H](CCCNC(=N)N)C(=O)NCC(=O)O)C(C)C | – | type 2 diabetes patients | dose not given, hypoglycaemic clamp, nadir to recovery | reference: placebo | diastolic blood pressure difference | 1.9 mm Hg |
| Cn1ncc(S(=O)(=O)NCc2ccn(-c3ccc(Br)cc3)n2)c1C(=O)O | colloidal aggregate formation, dynamic light scattering | 50 mM potassium phosphate buffer | 200 µM, pH 7.0, 1% DMSO | higher = more aggregation | DLS scattered light intensity | 751000 counts/s |
| C[C@H](CCC(=O)NCCS(=O)(=O)O)[C@H]1CC[C@H]2[C@@H]3[C@H](O)C[C@@H]4C[C@H](O)CC[C@]4(C)[C@H]3C[C@H](O)[C@]12C | – | human, plasma | endogenous baseline diurnal | – | daily mean concentration | 16.4 ± 1.4 nM |
| O=C(O)CCC(=O)O.[2H]C([2H])([2H])Oc1cc(C)c2[nH]ccc2c1CN1CC[C@@H](C2CC2)C[C@H]1c1ccc(C(=O)O)cc1 | ECG | healthy Chinese subjects | oral, 125 mg twice daily, multiple ascending dose | – | TEAE T wave abnormality | 0% |
| O=C(O)CC(CNS(=O)(=O)c1cccc(Cl)c1O)c1ccc(Br)s1 (centres unmarked) | colloidal aggregate formation, dynamic light scattering | 50 mM potassium phosphate buffer | 200 µM, pH 7.0, 1% DMSO | higher = more aggregation | DLS scattered light intensity | 586000 counts/s |
| CCCOc1ccc(-c2ccc(C#N)cc2)cc1 | refers to: compound | human pregnant women, female fetuses, maternal serum | dose not given, paired maternal-cord samples, mean | – | concentration | 0.86 ng/mL |
| O=S(=O)(NC1(c2ccc3c(c2)OCO3)CC1)c1cccc(Cl)c1O | colloidal aggregate formation, dynamic light scattering | 50 mM potassium phosphate buffer | 200 µM, pH 7.0, 1% DMSO | higher = more aggregation | DLS scattered light intensity | 903000 counts/s |
| Cc1ccc(C)c(OCCCC(C)(C)C(=O)O)c1 | – | human, plasma | oral, dose not given, day 17 predose, mean | – | trough plasma concentration | 1810 ng/mL |
| CCO[C@H]1CCN(Cc2c(OC)cc(C)c3[nH]ccc23)[C@H](c2ccc(C(=O)O)cc2)C1 | – | PNH patients, active haemolysis | oral, 50 mg, 4 weeks, treatment | – | incidence of abdominal distension | 0% |
| CCN1/C(=C/C(C)=O)Sc2ccc(F)cc21 | – | cynomolgus monkey | oral, 100 mg/kg, 1 h post-dose | reference: pre-dose | systolic blood pressure change | 95.8 ± 2.2% |
| N#Cc1ccc2c(c1)[C@H]1CCCN(C(=O)c3ccc4[nH]cnc4c3)[C@H]1C2 | – | human | 10 mg, end of trial | – | minimum ACTH level | 1.4 pmol/L |
| COc1ccnc(C(=O)O)c1O | soil adsorption | clay soil | pH 7.6, organic carbon 1.7 % | – | Freundlich coefficient KF | 93.8 mL/g |
| CC(C)NCCCC[C@@H]1NC(=O)[C@H](Cc2ccc(O)cc2)NC(=O)[C@H](Cc2ccccc2)NC(=O)CC[C@H](C(=O)N[C@@H](CCCCNC(C)C)C(=O)N[C@@H](CCCCNC(=O)[C@H](CCC(=O)O)NC(=O)[C@H](CCC(=O)O)NC(=O)[C@H](CCC(=O)O)NC(=O)CN2CCN(CC(=O)O)CCN(CC(=O)O)CCN(CC(=O)O)CC2)C(N)=O)NC(=O)CNC(=O)[C@H](Cc2ccc3ccccc3c2)NC(=O)[C@@H](CCCNC(=N)N)NC1=O [gallium-68 labelled] | – | mouse with PC-3 xenograft, blood | intravenous, 1 h | – | tissue uptake | 0.56 %ID/g |
| CC[C@@]1(O)C(=O)OCc2c1cc1n(c2=O)Cc2c-1nc1cc(F)c(C)c3c1c2[C@@H](N)CC3 | refers to: free payload | BALB/c nude mice, NCI-H1975/C797S xenograft, tumour | intravenous, 10 mg/kg | reference: NCI-H1975 tumours over NCI-H1975/C797S tumours | AUC(0-t) ratio | ~2 fold |
| C[C@@H](N)C1CCN(S(=O)(=O)c2cccc3cnccc23)CC1 | – | healthy volunteers | 250 mg, fasted | – | participants with dizziness | 16.7% |
| CC(C)(C(=O)N1CCOc2c(C#N)cncc2C1)C(F)F | refers to: CSF leakage | human | oral, 10 mg, CSF pharmacokinetic cohort | – | subjects with adverse event | 16.7% |
| C[C@@H](Oc1ccc(S(C)(=O)=O)cc1C(=O)N1C[C@@H]2C[C@]2(c2cc(C(F)(F)F)on2)C1)C(F)(F)F | LC-MS/MS | elderly human subjects, plasma | oral, 50 mg once daily, steady state, multiple doses | – | half-life | 40.9 h |
| O=C(Nc1nc2cccc(-c3ccc(CN4CCS(=O)(=O)CC4)cc3)n2n1)C1CC1 | refers to: general and administration-site disorders | rheumatoid arthritis patients | oral, 200 mg once daily, 4 weeks, any relatedness | – | treatment-emergent adverse events | 8.3% |

| SMILES | test | system | conditions | scale | quantity | value |
| --- | --- | --- | --- | --- | --- | --- |
| COc1cc(C(=O)N2CCC3(CC2)CC(=O)c2c(cnn2C(C)C)C3)cc(-c2ccc(C(=O)O)cc2)n1 | refers to: total cholesterol | human, fasting serum | 10 mg every 12 h, day 13, adjusted geometric mean | reference: baseline | percentage change from baseline | -3.9% |
| Cn1ncc(S(=O)(=O)NC(c2ccc(Cl)cc2)c2cccc(Cl)c2)c1C(=O)O (centres unmarked) | colloidal aggregate formation, dynamic light scattering | 50 mM potassium phosphate buffer | 200 µM, pH 7.0, 1% DMSO | higher = more aggregation | DLS scattered light intensity | 498000 counts/s |
| Cn1cc(Nc2nccc(-c3ccc4c(c3)CN(C3COC3)CC[C@H]4NC(=O)c3cn(C(C)(C)C)nn3)n2)cn1 | refers to: class-switched memory B cells | human, clinical trial, whole blood | 50 mg twice daily, follow-up | – | percent change from baseline | 4.86% |
| COc1ccc(-n2nc(C(N)=O)c3c2C(=O)N(c2ccc(N4CCCCC4=O)cc2)CC3)cc1 | population PK model (NONMEM) | human, plasma | oral, full model | – | CL renal/F | 21.5 ± 2.52 mL/min |
| Cc1nc(O)n2ncc(Br)c2n1 | haemolysis | sheep erythrocytes | 1 h, pH 7.5 | – | HC50 | > 128 µg/mL |
| C[C@@H](Cn1ccc(-c2ccc(C#N)c(Cl)c2)n1)NC(=O)c1cc([C@@H](C)O)[nH]n1 | – | human, fasted, plasma | oral solution, 300 mg 14C-darolutamide, geometric mean | – | AUC(0-tlast) | 6920 ng·h/mL |
| CCOc1c([C@H](C)n2nc(C)c3c(N)ncnc32)cc(Cl)c(F)c1[C@@H]1CNC(=O)C1 | refers to: ΔQTcF ≤ 30 ms | previously treated B-cell malignancy | oral, dose not given, all doses, overall population | – | share of ECG observations | 97% |
| O=C(O)c1occc1S(=O)(=O)NCc1cc2cc(F)ccc2[nH]1 | colloidal aggregate formation, dynamic light scattering | 50 mM potassium phosphate buffer | 200 µM, pH 7.0, 1% DMSO | higher = more aggregation | DLS scattered light intensity | 303000 counts/s |
| Cc1c(Cl)c(C)[n+]([O-])c(Cl)c1-c1noc(-c2cc(O)c(O)c([N+](=O)[O-])c2)n1 | – | healthy Chinese subjects | oral, 100 mg | – | serious TEAE incidence | 0% |
| CNC(=O)c1ccc(-c2cnc3ncc(Cc4ccc5ncccc5c4)n3n2)cc1F | phase 1 clinical trial, refers to: blood alkaline phosphatase increased | all expansion cohorts | oral, 600 mg twice daily, grade 3 or 4 | – | adverse event incidence | 0% |
| CC(C)(Sc1ccncc1-c1ccc(C#N)c2ccccc12)C(=O)O | – | human, urine | oral, 2.5 mg, added: febuxostat 0 mg | – | fraction excreted in urine (0-24 h) | 1.63% |
| CCc1cc(C(=O)NC)c2nccc(N3CCc4c(cc(Cn5ccnc5)cc4-c4cn(C)nc4C(F)(F)F)C3=O)c2c1 | – | Sprague Dawley rats | oral, 100 mg/kg once daily, 7 days | – | blood MCHC | 299 ± 5.6 g/L |
| C[C@@H](Nc1cc(F)cc(F)c1)c1cc(C(=O)N(C)C)cc2c(=O)cc(N3CCOCC3)oc12 | – | human, plasma | oral, 360 mg, day 1 single dose | – | Cmax geometric mean | 1950 ng/mL |
| CO/N=C(\C(=O)N[C@@H]1C(=O)N2C(C(=O)[O-])=C(C[N+]3(C)CCCC3)CS[C@H]12)c1csc(N)n1 | – | human whole blood | concentration not given, 24 h, 4 °C | – | deviation from nominal concentration | 11.1% |
| CNC(=O)c1ccc(-c2cnc3ncc(Cc4ccc5ncccc5c4)n3n2)cc1F | ultrafiltration | human severe hepatic function, plasma | oral, 200 mg, 3 h post-dose, geometric mean | – | fraction unbound | 0.042 |
| CC(=O)N(C)C1CCN(c2cc(F)cc(NC(=O)c3cc4c(F)ccc(C)c4[nH]3)c2)C1 (centres unmarked) | – | CD1 mouse | intravenous, 1 mg/kg | – | terminal half-life | 0.7 h |
| COC(=O)/C(C#N)=C1\Nc2ccccc2O1 | haemolysis | sheep erythrocytes | 1 h, pH 7.5 | – | HC50 | > 128 µg/mL |
| FC(F)(F)c1ccc(CNc2ccc(Cc3c[nH]c4ncc(Cl)cc34)cn2)cn1 | refers to: weight increased | human, advanced solid tumours, non-TGCT cohort | oral, 1000 mg/day, any grade | – | treatment-related adverse events | 0% |
| COc1c(N2C[C@@H]3CCCN[C@@H]3C2)c(F)cc2c(=O)c(C(=O)O)cn(C3CC3)c12 | – | male Hartley guinea pig, anaesthetized | intravenous, 1 mg/kg, baseline before infusion | – | QTc interval | 302 ± 0.6 ms |
| Cl.[2H]C([2H])([2H])CC(=O)c1cnc(NC(=O)C2CC2)cc1Nc1cccc(-c2ncn(C([2H])([2H])[2H])n2)c1OC | – | human, fasted, multiple dose | oral, 20 mg once daily, tablet, day 1, median | – | Tmax | 1.53 h |
| O=C1CC[C@H](N2Cc3cc(N4CCN(CC5CCN(c6ccc([C@@H]7c8ccc(O)cc8CC[C@@H]7c7ccccc7)cc6)CC5)CC4)ccc3C2=O)C(=O)N1 | – | human | oral, 200 mg, added: dabigatran etexilate 75 mg | – | participants with TEAE dry throat | 0% |
| CC(C)[C@H](N)C(=O)NCCCS(=O)(=O)O | – | human both sexes, plasma | oral, 256.5 mg twice daily days 2-7, day 7, fed capsule | – | AUC(0-12) | 11100 ng·h/mL |
